Measurements collected from several papers.
Protocols differ between the studies behind these lines. “And” joins repeats or separate records; there may be more than shown. Numbers after ± are the reported error.
Nuclear receptor subfamily 2 group C member 2 ligand-binding domain: Nuclear receptor subfamily 2 group C member 2, ligand-binding domain (Homo sapiens, UniProt P49116)
Chain of UniProt P49116 (whole entry, looked up): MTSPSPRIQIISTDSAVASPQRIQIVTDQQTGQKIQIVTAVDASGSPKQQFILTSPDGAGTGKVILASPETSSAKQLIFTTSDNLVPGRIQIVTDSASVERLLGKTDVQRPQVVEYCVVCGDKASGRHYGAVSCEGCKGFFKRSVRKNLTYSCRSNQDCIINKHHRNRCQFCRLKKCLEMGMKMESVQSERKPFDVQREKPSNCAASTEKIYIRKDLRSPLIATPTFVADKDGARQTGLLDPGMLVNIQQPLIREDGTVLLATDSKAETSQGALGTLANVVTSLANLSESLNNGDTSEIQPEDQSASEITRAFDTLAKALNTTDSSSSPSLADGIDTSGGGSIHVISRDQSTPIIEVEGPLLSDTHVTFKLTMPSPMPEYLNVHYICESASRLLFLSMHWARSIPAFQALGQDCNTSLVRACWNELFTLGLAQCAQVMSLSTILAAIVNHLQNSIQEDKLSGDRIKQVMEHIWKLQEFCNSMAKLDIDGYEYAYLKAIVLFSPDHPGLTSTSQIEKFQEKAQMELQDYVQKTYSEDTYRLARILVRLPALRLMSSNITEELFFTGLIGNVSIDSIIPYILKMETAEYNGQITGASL
Pancreatic alpha-amylase: Pancreatic alpha-amylase (Homo sapiens, UniProt P04746)
Chain of UniProt Q16774 (whole entry, unmodified, looked up): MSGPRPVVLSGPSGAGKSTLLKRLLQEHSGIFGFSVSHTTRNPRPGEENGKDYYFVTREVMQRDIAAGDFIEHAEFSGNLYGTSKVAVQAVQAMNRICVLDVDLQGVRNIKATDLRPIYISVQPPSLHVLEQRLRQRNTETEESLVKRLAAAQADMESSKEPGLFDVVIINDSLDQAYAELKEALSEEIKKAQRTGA
Chain of UniProt P51575 (whole entry, unmodified, looked up): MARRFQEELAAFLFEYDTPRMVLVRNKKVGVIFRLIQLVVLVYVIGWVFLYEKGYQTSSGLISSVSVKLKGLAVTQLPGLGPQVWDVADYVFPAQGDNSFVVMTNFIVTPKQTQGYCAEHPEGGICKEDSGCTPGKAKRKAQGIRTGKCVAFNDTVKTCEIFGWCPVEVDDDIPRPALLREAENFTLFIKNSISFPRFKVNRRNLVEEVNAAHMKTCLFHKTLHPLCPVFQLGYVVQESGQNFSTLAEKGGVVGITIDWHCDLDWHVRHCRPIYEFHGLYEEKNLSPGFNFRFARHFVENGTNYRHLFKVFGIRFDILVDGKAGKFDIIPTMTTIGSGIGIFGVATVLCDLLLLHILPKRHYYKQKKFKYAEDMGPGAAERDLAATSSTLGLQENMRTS
Chain of UniProt P27361 (whole entry, looked up): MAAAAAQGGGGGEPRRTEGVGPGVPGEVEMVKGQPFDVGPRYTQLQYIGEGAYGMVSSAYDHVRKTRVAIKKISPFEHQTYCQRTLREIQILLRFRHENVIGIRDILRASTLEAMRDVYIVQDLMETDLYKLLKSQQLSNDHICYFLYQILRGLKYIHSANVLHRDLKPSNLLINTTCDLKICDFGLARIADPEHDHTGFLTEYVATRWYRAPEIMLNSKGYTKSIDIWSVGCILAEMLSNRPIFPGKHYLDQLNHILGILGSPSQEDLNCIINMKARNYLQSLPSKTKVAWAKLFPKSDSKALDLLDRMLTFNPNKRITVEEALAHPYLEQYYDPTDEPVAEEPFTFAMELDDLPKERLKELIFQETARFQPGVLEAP
Chain of UniProt O14980 (whole entry, looked up): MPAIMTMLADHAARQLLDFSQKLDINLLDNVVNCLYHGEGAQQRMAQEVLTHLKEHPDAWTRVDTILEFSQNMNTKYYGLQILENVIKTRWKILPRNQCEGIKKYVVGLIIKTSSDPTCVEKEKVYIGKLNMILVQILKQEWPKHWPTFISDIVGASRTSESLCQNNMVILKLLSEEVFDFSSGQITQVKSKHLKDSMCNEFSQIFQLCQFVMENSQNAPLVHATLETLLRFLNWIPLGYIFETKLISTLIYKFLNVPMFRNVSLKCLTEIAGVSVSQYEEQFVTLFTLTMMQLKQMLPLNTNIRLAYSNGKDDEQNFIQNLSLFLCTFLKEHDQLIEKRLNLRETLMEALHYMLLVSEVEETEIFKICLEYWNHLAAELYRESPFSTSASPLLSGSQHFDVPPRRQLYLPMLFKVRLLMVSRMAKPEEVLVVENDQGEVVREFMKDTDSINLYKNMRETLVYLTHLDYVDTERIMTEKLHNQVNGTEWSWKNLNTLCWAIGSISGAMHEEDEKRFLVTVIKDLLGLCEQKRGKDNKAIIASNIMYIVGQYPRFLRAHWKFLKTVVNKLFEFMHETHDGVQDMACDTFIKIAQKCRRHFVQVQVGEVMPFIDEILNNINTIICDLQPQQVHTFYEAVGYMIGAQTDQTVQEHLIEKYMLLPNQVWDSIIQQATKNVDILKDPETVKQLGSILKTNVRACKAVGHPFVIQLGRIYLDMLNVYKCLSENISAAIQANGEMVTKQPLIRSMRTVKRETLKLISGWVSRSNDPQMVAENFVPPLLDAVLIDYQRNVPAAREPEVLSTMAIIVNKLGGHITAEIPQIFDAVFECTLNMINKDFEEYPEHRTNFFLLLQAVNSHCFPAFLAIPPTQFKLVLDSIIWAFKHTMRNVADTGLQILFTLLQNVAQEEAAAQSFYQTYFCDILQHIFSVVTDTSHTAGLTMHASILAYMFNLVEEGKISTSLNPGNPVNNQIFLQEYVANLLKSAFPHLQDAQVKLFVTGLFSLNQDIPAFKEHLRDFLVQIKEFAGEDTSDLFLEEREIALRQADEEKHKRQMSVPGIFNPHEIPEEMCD
Chain of UniProt P04746 (whole entry, looked up): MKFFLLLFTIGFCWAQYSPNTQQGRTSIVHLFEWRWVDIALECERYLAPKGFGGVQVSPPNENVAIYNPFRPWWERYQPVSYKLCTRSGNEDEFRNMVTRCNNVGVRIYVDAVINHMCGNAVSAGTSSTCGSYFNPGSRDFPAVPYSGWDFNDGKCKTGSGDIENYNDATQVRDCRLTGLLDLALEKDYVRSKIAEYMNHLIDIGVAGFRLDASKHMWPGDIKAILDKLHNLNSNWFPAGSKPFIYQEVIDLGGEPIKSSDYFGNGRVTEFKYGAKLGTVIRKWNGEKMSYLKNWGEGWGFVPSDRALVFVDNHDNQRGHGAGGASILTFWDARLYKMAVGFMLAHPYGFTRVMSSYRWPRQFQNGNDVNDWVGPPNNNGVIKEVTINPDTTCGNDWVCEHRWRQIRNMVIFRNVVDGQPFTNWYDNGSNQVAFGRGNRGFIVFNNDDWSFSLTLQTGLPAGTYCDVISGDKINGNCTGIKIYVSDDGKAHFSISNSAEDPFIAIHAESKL
Chain of UniProt Q8NEZ5 (whole entry, looked up): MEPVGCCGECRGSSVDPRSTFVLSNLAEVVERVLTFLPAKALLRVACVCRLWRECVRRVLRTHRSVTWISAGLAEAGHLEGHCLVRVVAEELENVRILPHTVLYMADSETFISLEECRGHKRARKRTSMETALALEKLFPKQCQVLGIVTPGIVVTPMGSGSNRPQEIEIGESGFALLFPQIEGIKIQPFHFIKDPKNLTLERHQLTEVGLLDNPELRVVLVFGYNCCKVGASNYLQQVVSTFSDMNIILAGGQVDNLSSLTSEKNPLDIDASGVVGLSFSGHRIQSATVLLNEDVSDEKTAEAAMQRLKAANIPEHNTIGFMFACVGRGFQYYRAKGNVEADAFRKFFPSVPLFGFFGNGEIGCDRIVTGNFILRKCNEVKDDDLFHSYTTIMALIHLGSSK
Chain of UniProt O75925 (whole entry, looked up): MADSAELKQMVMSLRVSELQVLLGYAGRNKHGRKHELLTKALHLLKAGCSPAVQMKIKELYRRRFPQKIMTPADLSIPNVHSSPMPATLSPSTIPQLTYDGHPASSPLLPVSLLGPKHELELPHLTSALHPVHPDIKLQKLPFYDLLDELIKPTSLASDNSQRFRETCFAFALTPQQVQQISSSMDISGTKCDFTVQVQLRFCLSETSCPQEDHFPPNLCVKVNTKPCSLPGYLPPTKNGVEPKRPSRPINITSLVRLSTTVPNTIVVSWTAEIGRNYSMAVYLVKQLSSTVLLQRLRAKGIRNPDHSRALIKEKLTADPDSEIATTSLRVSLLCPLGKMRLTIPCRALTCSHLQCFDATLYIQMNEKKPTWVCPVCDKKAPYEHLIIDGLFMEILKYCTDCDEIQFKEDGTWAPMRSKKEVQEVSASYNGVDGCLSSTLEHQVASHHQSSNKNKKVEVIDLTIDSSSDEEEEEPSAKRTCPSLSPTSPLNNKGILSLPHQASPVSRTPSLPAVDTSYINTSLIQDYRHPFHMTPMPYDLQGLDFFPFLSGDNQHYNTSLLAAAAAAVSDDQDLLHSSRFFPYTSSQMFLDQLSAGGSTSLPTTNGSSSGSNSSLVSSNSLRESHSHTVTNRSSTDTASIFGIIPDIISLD
Chain of UniProt P00883 (whole entry, looked up): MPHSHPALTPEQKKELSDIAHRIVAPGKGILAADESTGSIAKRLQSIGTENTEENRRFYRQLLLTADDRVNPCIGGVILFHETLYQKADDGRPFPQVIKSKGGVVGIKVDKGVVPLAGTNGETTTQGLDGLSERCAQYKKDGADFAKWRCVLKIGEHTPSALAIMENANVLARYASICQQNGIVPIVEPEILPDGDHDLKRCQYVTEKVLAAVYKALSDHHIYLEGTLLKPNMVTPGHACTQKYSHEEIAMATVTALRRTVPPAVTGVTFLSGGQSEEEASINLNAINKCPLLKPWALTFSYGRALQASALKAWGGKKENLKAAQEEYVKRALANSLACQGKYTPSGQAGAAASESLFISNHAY
Chain of UniProt P12763 (whole entry, looked up): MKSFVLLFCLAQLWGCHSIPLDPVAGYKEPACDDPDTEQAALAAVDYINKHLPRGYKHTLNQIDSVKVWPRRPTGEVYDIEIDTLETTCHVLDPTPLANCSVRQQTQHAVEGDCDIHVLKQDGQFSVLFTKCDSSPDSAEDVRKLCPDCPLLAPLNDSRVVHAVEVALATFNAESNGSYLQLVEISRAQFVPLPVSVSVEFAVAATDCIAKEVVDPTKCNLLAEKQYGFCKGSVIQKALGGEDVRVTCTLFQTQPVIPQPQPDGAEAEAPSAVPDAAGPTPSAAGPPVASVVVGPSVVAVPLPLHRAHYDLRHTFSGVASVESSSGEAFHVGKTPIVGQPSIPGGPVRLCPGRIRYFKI

CC(Nc1nc(N2CCCC2)nc2ccccc12)c1ccccc1 (centres unmarked)
cells with nuclear reporter (Exportin-1 (XPO1, Homo sapiens, UniProt O14980); nuclear export, high content imaging; HeLa Kyoto reporter; 0.03 µM, 2 h): 6.02% and 3.29% and 2.74%

N[C@H](Cc1ccccc1)C(=O)O
ΔH (PAL1 (Petroselinum crispum, UniProt P24481, Y110F); binding, ITC): -29.3 kcal/mol

Cn1cc(-c2ccc(-c3cncc(Cl)c3N3CCC4(CCNC4=O)CC3)cc2)cn1
fold change in expression (COLO 205; microarray, refers to: MMP2; concentration not given, 2 h, gene set MMP-2; reference: untreated cells): 2.73

Cc1ncccc1OC[C@H]1CN(CCN2CCc3ccccc32)CCO1
inhibition (5-hydroxytryptamine receptor 1A (HTR1A, Homo sapiens, UniProt P08908); radioligand binding; concentration not given, together with: [3H]8-OH-DPAT): 26.5%

CC(=O)N[C@@H](COP(=O)(O)O)C(=O)N1CCC[C@H]1C(=O)N[C@H](C(=O)N[C@@H](Cc1ccccc1)C(N)=O)[C@@H](C)O
−TΔS (Breast cancer type 1 susceptibility protein, tandem BRCT domains (BRCA1, Homo sapiens, UniProt P38398); binding, isothermal titration calorimetry; BRCT domain, BACH1 peptide): 6.3 ± 1.1 kcal/mol

CN(C)C(=O)C(CCN1CCC(O)(c2ccc(Cl)cc2)CC1)(c1ccccc1)c1ccccc1
normalized Gmax (Calcium-activated potassium channel subunit alpha-1, with LRRC26 γ1 subunit (KCNMA1, Homo sapiens, UniProt Q12791); BK current, inhibitor, inside-out patch clamp; excised membrane patch; 0.1 µM, γ1 coexpressed, individual fits, together with: nominally 0 Ca2+ cytosolic; reference: without loperamide): 0.906 ± 0.028

NC(=O)c1cccnc1
koff (Nuclear receptor subfamily 2 group C member 2 ligand-binding domain; SPR imaging; 600 nM): 4.59e-07 s⁻¹

CC(C)C[C@H](NC(=O)C[C@H](O)[C@H](CC(C)C)NC(=O)[C@H](Cc1c[nH]cn1)NC(=O)CNC(=O)[C@@H](NC(=O)[C@H](C)NC(=O)[C@H](Cc1c[nH]c2ccccc12)NC(=O)[C@H](CCC(N)=O)NC(=O)[C@@H](Cc1ccccc1)NC(=O)COCCOCCNC(=O)CCC(C(=O)O)N1CCN(CC(=O)O)CCN(CC(=O)O)CCN(CC(=O)O)CC1)C(C)C)C(N)=O (some centres unmarked) [lutetium-177 labelled]
tissue uptake (BALB/c nu/nu mice, spleen; intravenous, 100 pmol, 1 h, together with: PA 300 µg): 0.2 ± 0.07 %ID/g

Cc1ccc(OC[C@@H]2CN(CCN3CCc4ccccc43)CCO2)cn1
inhibition (5-hydroxytryptamine receptor 4 (HTR4, Homo sapiens, UniProt Q13639); radioligand binding; concentration not given): 2.4%

CCCCc1oc2ccccc2c1C(=O)c1cc(I)c(OCCN(CC)CC)c(I)c1
koff (Nuclear receptor subfamily 2 group C member 2 ligand-binding domain; SPR imaging; 600 nM): 3.18e-07 s⁻¹

Cc1cccc(N2CC(C(=O)O)CC2=O)c1 (centres unmarked)
log fold enrichment (F-box only protein 22, with SKP1 (Homo sapiens, UniProt Q8NEZ5); binding, affinity selection mass spectrometry; reference: other proteins in batch): 0.179

C[C@@H]1CCO[C@H]2Cn3cc(C(=O)NCc4ccc(F)cc4F)c(=O)c(O)c3C(=O)N12
inhibition (Equilibrative nucleoside transporter 4 (SLC29A4, Homo sapiens, UniProt Q7RTT9); transport; MDCK-II, transfected; 3 µM, together with: MPP+ 10 µM): -10%

Nc1ncnc2c1ncn2[C@@H]1O[C@H](COP(=O)(O)OP(=O)(O)OP(=O)(O)O)[C@@H](O)[C@H]1O
mean long closed time (ATP-sensitive inward rectifier potassium channel 1 (Rattus norvegicus, UniProt P35560); inside-out patch clamp; renal principal cells, rat; 0.4 mM): 600 ms

O=C(Nc1cccnn1)N1CCC(=Cc2cccc(Oc3ccc(C(F)(F)F)cn3)c2)CC1
ED50 (Fatty-acid amide hydrolase 1 (Faah, Mus musculus, UniProt O08914); enzyme activity, inhibitor, ex vivo; rat, brain; oral, 8 h): 4.3 mg/kg

CCN(CC)C(=O)C1(c2ccccc2)CC1CN.Cl (centres unmarked)
koff (Nuclear receptor subfamily 2 group C member 2 ligand-binding domain; SPR imaging; 600 nM): 5.15e-06 s⁻¹

Nc1[nH]nc2nnc(-c3c(-c4ccccc4)nn4ccccc34)cc12
kinase activity (Mitogen-activated protein kinase 3 (MAPK3, Homo sapiens, UniProt P27361); ADP-Glo; 500 pM, together with: MBP substrate): 111% and 64% and 78.4%

C[C@H](N)C(=O)N[C@@H](CCCNC(=N)N)C(=O)N[C@H](C(=O)N[C@@H](CCCCN)C(=O)N[C@@H](CCC(N)=O)C(=O)N[C@H](C(=O)N[C@@H](C)C(=O)N[C@@H](CCCNC(=N)N)C(=O)N[C@@H](C)C(=O)N[C@@H](CO)C(=O)O)[C@@H](C)O)[C@@H](C)O
binding enthalpy (Transcriptional regulator ATRX (ATRX, Homo sapiens, UniProt P46100, F284Y/K251R); isothermal titration calorimetry; concentration not given, pH 7.5, 25.0 °C): -3.2 kcal/mol

Nc1ncnc2c1ncn2[C@@H]1O[C@H](COP(=O)(O)CP(=O)(O)OP(=O)(O)O)[C@@H](O)[C@H]1O
calcium influx (P2X purinoceptor 1 (P2RX1, Homo sapiens, UniProt P51575, L218T); calcium influx; 100 nM; reference: ionomycin response): 36.4% and 67.2% and 43.8%

COC1=C(OC)C(=O)C(CCCCCCCCCCO)=C(C)C1=O
koff (Nuclear receptor subfamily 2 group C member 2 ligand-binding domain; SPR imaging; 600 nM): 2.73e-05 s⁻¹

Nc1ncnc2c1ncn2[C@@H]1O[C@H](CO[P@](=O)(O)O[P@](=O)(O)O[P@@](=O)(O)S)[C@@H](O)[C@H]1O
ΔH (GUK1 (Homo sapiens, UniProt Q16774); binding, isothermal titration calorimetry; molar ratio 3.053, fitted curve): -0.249 kcal/mol

CC[C@H](C)[C@@H]1NC(=O)[C@H]([C@@H](C)CC)NC(=O)[C@@H](Cc2ccc(O)cc2)NC(=O)CSC[C@@H](C(N)=O)NC(=O)[C@H](CCCNC(=N)N)NC(=O)[C@H](CCCCN)NC(=O)[C@H](CC(C)C)NC(=O)[C@H](CO)NC(=O)[C@H](CO)NC(=O)[C@H](CC(C)C)NC(=O)[C@H](Cc2ccccc2)NC(=O)[C@H](C(C)C)NC(=O)CNC(=O)[C@H](CC(C)C)NC(=O)[C@@H]2CCCN2C(=O)[C@H]([C@@H](C)O)NC(=O)[C@H](CC(=O)O)NC1=O
ΔG (VPS35/VPS29 (Homo sapiens, UniProt Q96QK1+Q9UBQ0); binding, ITC; 25 °C, heterodimer): -9.5 ± 0.09 kcal/mol

CC[C@H](C)[C@H](NC(=O)[C@H](CCC(=O)O)NC(=O)[C@H](CCC(=O)O)NC(=O)[C@@H]1CCCN1C(=O)[C@H](CC(=O)O)NC(=O)[C@H](C)NC(=O)[C@H](CCC(N)=O)NC(=O)[C@@H](NC(=O)[C@H](C)NC(=O)[C@@H](NC(=O)[C@H](CO)NC(=O)[C@@H](NC(=O)[C@H](CCCCN)NC(=O)[C@@H](N)Cc1ccc(O)cc1)[C@@H](C)O)C(C)C)[C@@H](C)O)C(=O)N[C@H](C(=O)N[C@H](C(=O)N[C@@H](CC(C)C)C(=O)N[C@@H](CC(=O)O)C(=O)N[C@@H](CC(=O)O)C(=O)N[C@@H](CC(=O)O)C(=O)N[C@@H](CC(=O)O)C(=O)O)C(C)C)[C@@H](C)CC
enthalpy change (ΔH) (Small ubiquitin-related modifier 1 (Homo sapiens, UniProt P63165, C52A); isothermal titration calorimetry; concentration not given, pH 7.4, SUMO1 construct): 5.1 ± 0.54 kcal/mol

CC1(C)CC2(C)OC(=O)NC2(C)c2ccccc21 (centres unmarked)
log fold enrichment (E3 SUMO-protein ligase PIAS1 (PIAS1, Homo sapiens, UniProt O75925); binding, affinity selection mass spectrometry; reference: other proteins in batch): 0.121

Nc1nc2c(ncn2[C@@H]2O[C@H](COP(=O)(O)O)[C@@H](O)[C@H]2O)c(=O)[nH]1
reaction rate (GUK1 (Homo sapiens, UniProt Q16774, R44A); enzyme activity, NADH-coupled; 62.5 µM): -0.534 s⁻¹ and -0.174 s⁻¹ and -0.0956 s⁻¹

Nc1ncnc2c1ncn2[C@@H]1O[C@H](CSCC[C@H](N)C(=O)O)[C@@H](O)[C@H]1O
ΔH of binding (O-methyltransferase (Sorghum bicolor, UniProt A0A1B6PFV1); concentration not given, together with: PTR+): -5.59 ± 0.14 kcal/mol

COc1cc(F)ccc1-c1ncnc(Nc2cccc(C[S@](C)(=N)=O)c2)n1
remaining activity (MAP kinase-activated protein kinase 2 (MAPKAPK2, Homo sapiens, UniProt P49137); kinase activity; 10 µM, together with: 10 µM ATP): 107%

N#Cc1cc(Nc2ncc3c(n2)CCCCC3=O)cs1
enzyme activity (Glucose-6-phosphate 1-dehydrogenase (G6PD, Homo sapiens, UniProt P11413); inhibitor, LC-MS, refers to: 6-phosphogluconate production; concentration not given): inhibited

N#Cc1cc(Cn2cncc2CN2CCN(c3cccc(OC(F)(F)F)c3)C(=O)C2)ccc1F
IC50 (Cryptococcus neoformans farnesyltransferase; enzyme activity, inhibitor, fluorescence; together with: 1 µM FPP, 0.5 µM dansylated peptide): 550 ± 30 nM

Cc1cc(-c2ccnc3[nH]cc(F)c23)cc(F)c1[C@@]1(O)[C@H](C)CN(C(=O)CN)C[C@@H]1C
inhibition (AKT2 and AKT3; ATP probe binding, KiNativ, refers to: ATP loop; HEK293T cell lysate; 10 µM): -97.7%

CC(C)C[C@@H]1NC(=O)[C@H](C(C)C)NC(=O)[C@H](CCC(=O)O)NC(=O)[C@@H](NC(=O)[C@H](C)N)CSSC[C@@H](C(=O)N[C@@H](CO)C(=O)NCC(N)=O)NC(=O)CNC(=O)[C@H]([C@@H](C)O)NC(=O)[C@H](Cc2c[nH]c3ccccc23)NC(=O)[C@H](CC(=O)O)NC(=O)[C@H](Cc2ccc(O)cc2)NC(=O)[C@H](CO)NC1=O
dissociation rate constant (Fructose-bisphosphate aldolase A (ALDOA, Oryctolagus cuniculus, UniProt P00883); surface plasmon resonance; pH 7.4, 25 °C, 2% DMSO, 0.005% Tween-20, 1:1 model): 0.015 s⁻¹

CNCC[C@@H](Oc1ccccc1C)c1ccccc1
koff (Nuclear receptor subfamily 2 group C member 2 ligand-binding domain; SPR imaging; 600 nM): 3.15e-07 s⁻¹

CC(C)C[C@@H]1NC(=O)[C@H](C(C)C)NC(=O)CNC(=O)[C@H](CC(N)=O)NC(=O)[C@@H]2CCCN2C(=O)[C@H](Cc2ccc(O)cc2)NC(=O)[C@H](CCCNC(=N)N)NC(=O)[C@H](Cc2ccccc2)NC(=O)[C@@H](NC(=O)[C@H](CCCCN)NC(=O)[C@H](C)NC(=O)[C@H](CO)NC(=O)[C@H](C)NC(=O)[C@@H](N)Cc2ccc(O)cc2)CSSC[C@@H](C(=O)N[C@H](C(N)=O)[C@@H](C)O)NC(=O)[C@H](C)NC1=O
binding stoichiometry (Alpha-2-HS-glycoprotein, asialo (AHSG, Bos taurus, UniProt P12763); isothermal titration calorimetry; concentration not given, pH 7.0, 25 °C, together with: asialofetuin): 0.146

Oc1ccc([C@@H]2c3c(O)cc(O)cc3[C@@H]3c4c(cc(O)c5c4[C@@H]2[C@H](c2ccc(O)cc2)[C@H]5c2cc(O)cc4c2[C@@H](c2cc(O)cc(O)c2)[C@H](c2ccc(O)cc2)O4)O[C@H]3c2ccc(O)cc2)cc1
Vmax (Pancreatic alpha-amylase; enzyme activity; 20 µM): 2450 ± 1580 µmol/min

O=C1OC(c2ccccc2)=N/C1=C\c1ccccc1
Km (Pancreatic alpha-amylase; inhibitor, Lineweaver-Burk; 300 ppm, together with: starch substrate): 895 µM

CC[C@@H]1[C@H](F)C(=O)N[C@@H]1COc1nccc2cc(C(N)=O)c(OC)cc12
inhibition (Ribosomal protein S6 kinase alpha-3 (RPS6KA3, Homo sapiens, UniProt P51812); ATP probe binding, KiNativ profiling, refers to: domain 2 Lys2 site; THP-1 cell lysate; 0.2 mM): -3.7%

Repeated from above:
COc1cc(F)ccc1-c1ncnc(Nc2cccc(C[S@](C)(=N)=O)c2)n1
remaining activity (MAP kinase-activated protein kinase 2 (MAPKAPK2, Homo sapiens, UniProt P49137); kinase activity; 10 µM, together with: 10 µM ATP): 107%

CC1(C)CC2(C)OC(=O)NC2(C)c2ccccc21 (centres unmarked)
log fold enrichment (E3 SUMO-protein ligase PIAS1 (PIAS1, Homo sapiens, UniProt O75925); binding, affinity selection mass spectrometry; reference: other proteins in batch): 0.121

N[C@H](Cc1ccccc1)C(=O)O
ΔH (PAL1 (Petroselinum crispum, UniProt P24481, Y110F); binding, ITC): -29.3 kcal/mol

Nc1nc2c(ncn2[C@@H]2O[C@H](COP(=O)(O)O)[C@@H](O)[C@H]2O)c(=O)[nH]1
reaction rate (GUK1 (Homo sapiens, UniProt Q16774, R44A); enzyme activity, NADH-coupled; 62.5 µM): -0.534 s⁻¹ and -0.174 s⁻¹ and -0.0956 s⁻¹

O=C(Nc1cccnn1)N1CCC(=Cc2cccc(Oc3ccc(C(F)(F)F)cn3)c2)CC1
ED50 (Fatty-acid amide hydrolase 1 (Faah, Mus musculus, UniProt O08914); enzyme activity, inhibitor, ex vivo; rat, brain; oral, 8 h): 4.3 mg/kg
